Results from different studies.
Each line is one published result; not all experiments were run side by side. Numbers after ± are the reported error.
TLR4: Toll-like receptor 4 (TLR4, Homo sapiens, UniProt O00206)
Sequence of UniProt O00206 (whole entry, looked up): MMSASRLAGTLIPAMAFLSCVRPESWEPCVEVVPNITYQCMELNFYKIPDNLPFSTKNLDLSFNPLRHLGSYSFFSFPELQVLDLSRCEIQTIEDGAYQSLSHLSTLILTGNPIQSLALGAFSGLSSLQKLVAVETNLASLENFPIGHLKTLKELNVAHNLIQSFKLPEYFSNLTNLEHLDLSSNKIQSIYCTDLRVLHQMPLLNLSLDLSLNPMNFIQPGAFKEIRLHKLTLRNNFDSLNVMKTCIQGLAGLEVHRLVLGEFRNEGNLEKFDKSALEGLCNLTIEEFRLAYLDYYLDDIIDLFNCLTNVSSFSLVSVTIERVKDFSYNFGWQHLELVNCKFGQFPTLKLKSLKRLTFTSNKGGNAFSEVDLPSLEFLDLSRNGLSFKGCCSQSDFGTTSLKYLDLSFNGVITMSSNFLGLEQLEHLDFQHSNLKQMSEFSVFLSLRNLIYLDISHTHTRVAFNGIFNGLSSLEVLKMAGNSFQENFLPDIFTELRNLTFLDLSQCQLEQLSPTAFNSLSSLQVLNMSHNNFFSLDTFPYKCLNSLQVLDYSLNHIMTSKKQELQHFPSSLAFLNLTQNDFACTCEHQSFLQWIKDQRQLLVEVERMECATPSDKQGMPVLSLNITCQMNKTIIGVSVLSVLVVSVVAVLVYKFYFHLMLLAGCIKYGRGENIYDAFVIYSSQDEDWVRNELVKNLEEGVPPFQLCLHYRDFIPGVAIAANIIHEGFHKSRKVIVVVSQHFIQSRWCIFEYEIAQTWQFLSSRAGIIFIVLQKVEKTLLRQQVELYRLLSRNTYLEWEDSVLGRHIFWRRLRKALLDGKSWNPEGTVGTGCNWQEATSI
S1PR2: Sphingosine 1-phosphate receptor 2 (S1PR2, Homo sapiens, UniProt O95136)
Sequence of UniProt O95136 (whole entry, looked up): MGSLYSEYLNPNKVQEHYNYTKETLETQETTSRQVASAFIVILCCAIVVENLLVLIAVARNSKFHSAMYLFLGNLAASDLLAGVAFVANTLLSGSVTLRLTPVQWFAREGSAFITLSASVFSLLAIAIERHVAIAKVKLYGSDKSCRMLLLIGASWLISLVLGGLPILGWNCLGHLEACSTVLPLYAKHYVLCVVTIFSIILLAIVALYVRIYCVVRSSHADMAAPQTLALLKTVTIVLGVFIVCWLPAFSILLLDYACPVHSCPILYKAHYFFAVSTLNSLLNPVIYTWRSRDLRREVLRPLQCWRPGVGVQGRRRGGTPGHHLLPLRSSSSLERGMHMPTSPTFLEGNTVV
NPR2: Atrial natriuretic peptide receptor 2 (NPR2, Homo sapiens, UniProt P20594)
Sequence of UniProt P20594 (whole entry, looked up): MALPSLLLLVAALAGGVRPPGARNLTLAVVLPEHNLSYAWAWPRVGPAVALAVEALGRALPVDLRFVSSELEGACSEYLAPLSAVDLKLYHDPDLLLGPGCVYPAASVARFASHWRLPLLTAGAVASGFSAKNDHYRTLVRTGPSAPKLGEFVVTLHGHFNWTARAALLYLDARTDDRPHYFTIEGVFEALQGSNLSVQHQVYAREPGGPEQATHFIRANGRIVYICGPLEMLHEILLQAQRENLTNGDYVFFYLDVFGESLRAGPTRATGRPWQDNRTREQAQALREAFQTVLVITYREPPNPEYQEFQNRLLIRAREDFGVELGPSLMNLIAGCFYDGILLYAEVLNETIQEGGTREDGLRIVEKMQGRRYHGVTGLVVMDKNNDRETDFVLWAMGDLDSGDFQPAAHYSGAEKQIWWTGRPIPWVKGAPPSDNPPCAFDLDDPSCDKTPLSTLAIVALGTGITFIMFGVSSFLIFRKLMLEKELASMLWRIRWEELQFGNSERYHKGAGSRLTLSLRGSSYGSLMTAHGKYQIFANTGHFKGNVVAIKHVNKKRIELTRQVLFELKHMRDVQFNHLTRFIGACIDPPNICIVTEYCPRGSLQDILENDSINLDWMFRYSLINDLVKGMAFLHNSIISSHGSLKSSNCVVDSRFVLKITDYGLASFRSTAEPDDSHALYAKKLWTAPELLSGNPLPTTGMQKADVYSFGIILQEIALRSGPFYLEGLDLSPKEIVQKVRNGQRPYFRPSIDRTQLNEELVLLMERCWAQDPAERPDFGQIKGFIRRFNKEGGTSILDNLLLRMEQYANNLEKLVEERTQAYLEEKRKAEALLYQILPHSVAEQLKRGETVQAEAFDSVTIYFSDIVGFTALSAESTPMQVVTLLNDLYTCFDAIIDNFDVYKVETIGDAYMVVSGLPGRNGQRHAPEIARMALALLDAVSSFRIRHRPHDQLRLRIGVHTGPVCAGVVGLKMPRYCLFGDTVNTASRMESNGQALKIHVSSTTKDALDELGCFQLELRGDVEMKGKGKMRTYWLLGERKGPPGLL
Sequence of UniProt O75762 (whole entry, unmodified, looked up): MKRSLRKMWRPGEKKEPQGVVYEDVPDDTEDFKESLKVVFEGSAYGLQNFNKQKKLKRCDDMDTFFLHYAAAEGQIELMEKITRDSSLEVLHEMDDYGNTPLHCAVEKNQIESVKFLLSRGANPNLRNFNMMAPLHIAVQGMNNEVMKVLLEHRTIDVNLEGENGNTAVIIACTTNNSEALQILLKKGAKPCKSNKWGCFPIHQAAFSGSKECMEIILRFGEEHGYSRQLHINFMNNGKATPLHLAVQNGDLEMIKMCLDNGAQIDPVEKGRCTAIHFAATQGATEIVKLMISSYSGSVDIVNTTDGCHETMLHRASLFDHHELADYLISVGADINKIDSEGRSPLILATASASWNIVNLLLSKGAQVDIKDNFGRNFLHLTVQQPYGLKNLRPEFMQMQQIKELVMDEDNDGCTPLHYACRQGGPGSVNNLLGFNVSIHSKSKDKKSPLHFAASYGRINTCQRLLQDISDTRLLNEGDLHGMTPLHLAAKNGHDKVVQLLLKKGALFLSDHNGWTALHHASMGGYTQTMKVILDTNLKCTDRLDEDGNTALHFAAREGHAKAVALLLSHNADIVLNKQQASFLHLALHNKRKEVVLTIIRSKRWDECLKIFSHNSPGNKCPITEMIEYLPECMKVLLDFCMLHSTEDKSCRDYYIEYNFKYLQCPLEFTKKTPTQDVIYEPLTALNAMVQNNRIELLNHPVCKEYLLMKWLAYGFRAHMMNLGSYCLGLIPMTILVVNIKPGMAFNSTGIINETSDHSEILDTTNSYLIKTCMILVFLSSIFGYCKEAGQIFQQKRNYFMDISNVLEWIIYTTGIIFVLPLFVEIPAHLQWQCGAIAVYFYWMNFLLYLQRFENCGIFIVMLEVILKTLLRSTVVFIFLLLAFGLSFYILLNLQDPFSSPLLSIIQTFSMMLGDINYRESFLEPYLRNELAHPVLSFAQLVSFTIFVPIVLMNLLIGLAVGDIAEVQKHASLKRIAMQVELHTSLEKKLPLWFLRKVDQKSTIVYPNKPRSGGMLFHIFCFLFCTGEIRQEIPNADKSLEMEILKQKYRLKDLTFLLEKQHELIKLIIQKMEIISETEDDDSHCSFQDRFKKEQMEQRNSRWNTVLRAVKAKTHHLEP
Sequence of UniProt Q9Z282 (whole entry, looked up): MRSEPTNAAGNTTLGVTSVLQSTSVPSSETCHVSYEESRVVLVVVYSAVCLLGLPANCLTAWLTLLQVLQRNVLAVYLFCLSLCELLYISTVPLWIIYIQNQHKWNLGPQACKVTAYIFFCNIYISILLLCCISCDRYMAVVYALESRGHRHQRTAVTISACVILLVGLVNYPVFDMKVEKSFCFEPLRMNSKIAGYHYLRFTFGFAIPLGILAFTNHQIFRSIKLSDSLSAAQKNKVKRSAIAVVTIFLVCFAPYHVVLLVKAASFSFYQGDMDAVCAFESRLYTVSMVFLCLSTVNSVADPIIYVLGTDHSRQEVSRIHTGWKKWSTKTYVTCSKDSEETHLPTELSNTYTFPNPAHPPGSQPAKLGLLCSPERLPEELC
Sequence of UniProt Q8NEC5 (whole entry, looked up): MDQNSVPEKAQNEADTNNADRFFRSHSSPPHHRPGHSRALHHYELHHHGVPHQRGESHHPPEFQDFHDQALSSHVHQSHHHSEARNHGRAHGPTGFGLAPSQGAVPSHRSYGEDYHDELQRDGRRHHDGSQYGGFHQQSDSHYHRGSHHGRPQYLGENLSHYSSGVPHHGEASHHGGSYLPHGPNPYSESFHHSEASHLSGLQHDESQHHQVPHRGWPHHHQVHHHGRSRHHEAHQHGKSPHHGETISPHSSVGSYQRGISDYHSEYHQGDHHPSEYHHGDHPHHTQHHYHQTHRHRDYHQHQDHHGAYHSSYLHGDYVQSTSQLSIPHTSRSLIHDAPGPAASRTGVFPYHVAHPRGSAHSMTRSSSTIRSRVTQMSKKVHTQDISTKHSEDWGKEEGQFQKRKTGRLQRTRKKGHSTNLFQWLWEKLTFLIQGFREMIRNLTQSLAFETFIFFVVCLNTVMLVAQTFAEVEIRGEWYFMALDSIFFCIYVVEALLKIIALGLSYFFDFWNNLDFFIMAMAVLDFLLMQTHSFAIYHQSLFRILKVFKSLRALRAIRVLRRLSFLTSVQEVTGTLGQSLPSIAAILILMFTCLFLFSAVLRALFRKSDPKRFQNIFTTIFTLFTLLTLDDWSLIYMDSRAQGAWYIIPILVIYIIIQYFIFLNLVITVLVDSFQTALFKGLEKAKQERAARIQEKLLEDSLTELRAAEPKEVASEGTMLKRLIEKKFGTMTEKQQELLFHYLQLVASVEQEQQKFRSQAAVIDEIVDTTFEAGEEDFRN
Sequence of UniProt Q86XQ3 (whole entry, looked up): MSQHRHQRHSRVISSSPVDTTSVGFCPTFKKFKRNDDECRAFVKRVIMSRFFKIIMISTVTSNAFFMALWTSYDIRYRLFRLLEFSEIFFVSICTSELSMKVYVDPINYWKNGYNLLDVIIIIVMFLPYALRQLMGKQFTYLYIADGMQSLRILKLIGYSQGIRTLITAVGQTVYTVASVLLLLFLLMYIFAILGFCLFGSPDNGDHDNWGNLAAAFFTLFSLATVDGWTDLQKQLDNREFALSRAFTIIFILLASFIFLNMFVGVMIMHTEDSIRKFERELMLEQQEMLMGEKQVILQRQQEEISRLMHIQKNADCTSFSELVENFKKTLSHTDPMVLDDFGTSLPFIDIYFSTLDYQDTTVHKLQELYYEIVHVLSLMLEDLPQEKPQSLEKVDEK

O=C(NC[C@@H](Cc1ccccc1)N1CCC(O)(C(F)(F)F)CC1)C1(c2ccc(Cl)cc2)CCCC1
Emax (TRPA1 (Homo sapiens, UniProt O75762); calcium influx, agonist; HEK293F transfected; relative to: AITC 300 µM): 26 ± 0.9%

CC[C@H](C)[C@H](NC(=O)[C@H](CC(C)C)NC(=O)[C@H](C)NC(=O)CNC(=O)CNC(=O)[C@H](CS)NC(=O)[C@H](Cc1ccccc1)NC(=O)[C@H](Cc1c[nH]cn1)NC(=O)[C@H](CCCNC(=N)N)NC(=O)CNC(=O)[C@H](CCC(N)=O)NC(=O)[C@@H](N)CC(N)=O)C(=O)N[C@@H](Cc1c[nH]cn1)C(=O)N[C@@H](C)C(=O)N[C@@H](CCCNC(=N)N)C(=O)N[C@@H](Cc1ccccc1)C(=O)N[C@H](C(=O)N[C@@H](CCSC)C(=O)N[C@H](C(=O)N[C@@H](C)C(=O)N[C@@H](C)C(=O)N[C@@H](CO)C(=O)N[C@@H](CS)C(=O)N[C@@H](Cc1ccccc1)C(=O)N[C@@H](CCC(N)=O)C(=O)O)[C@@H](C)O)C(C)C
Emax (TLR4; reporter gene, agonist; HEK-Blue hTLR4): 15%

Cc1cc(C(=O)Cn2ccccc2=O)c(C)n1Cc1ccccc1
Emax (S1PR2; reporter gene, agonist): 10%

C/C(=C\CC[C@@]1(C)[C@@H]2C=C(CO)CC[C@@H]21)CO
Emax (CatSper channel complex (Homo sapiens, UniProt Q7RTX7+Q86XQ3+Q8NEC5+Q96P56); calcium influx, activator, FLIPR Fluo-4; human sperm; 3 µM; relative to: saturating progesterone): 102%

N#CCCN1CCN(C(=S)c2ccc(-c3ccccc3F)o2)CC1
Emax (NPR2; HTRF, item: cGMP; HEK293 overexpressing GC-B; added: subthreshold CNP; relative to: saturating CNP): 96%

O=C(NC[C@@H](Cc1ccc(F)cc1)N1CCC(O)(C(F)(F)F)CC1)C1(c2ccc(Cl)cc2)CCCC1
Emax (TRPA1 (Homo sapiens, UniProt O75762, I890V); calcium influx, agonist; HEK293F transfected; I890V variant, unit not given; relative to: AITC): 0.39 ± 0.04

Cc1cc(C(=O)Cn2cc(C(F)(F)F)ccc2=O)c(C)n1Cc1ccccc1
Emax (S1PR2; reporter gene, agonist): 100%

CC(C)C[C@H](NC(=O)[C@H](CCCNC(=N)N)NC(=O)CNC(=O)CNC(=O)[C@H](CO)NC(=O)[C@H](Cc1c[nH]cn1)NC(=O)[C@H](Cc1c[nH]c2ccccc12)NC(=O)[C@H](CO)NC(=O)CNC(=O)[C@H](Cc1c[nH]c2ccccc12)NC(=O)CNC(=O)[C@H](C)NC(=O)[C@@H](NC(=O)[C@H](CCC(N)=O)NC(=O)[C@H](CS)NC(=O)[C@H](CCCNC(=N)N)NC(=O)[C@@H](NC(=O)CN)[C@@H](C)O)C(C)C)C(=O)N[C@@H](CO)C(=O)N[C@@H](CCCNC(=N)N)C(=O)N[C@@H](Cc1ccccc1)C(=O)N1CCC[C@H]1C(=O)N[C@@H](CCCNC(=N)N)C(=O)N[C@@H](Cc1ccccc1)C(=O)N[C@H](C(=O)N[C@@H](CC(N)=O)C(=O)N[C@H](C(=O)O)C(C)C)C(C)C
Emax (TLR4; reporter gene, agonist; HEK-Blue hTLR4): 0%

N#CCCN1CCN(C(=S)c2ccc(-c3cccc(Cl)c3)o2)CC1
Emax (NPR2; HTRF, item: cGMP; HEK293 overexpressing GC-B; added: subthreshold CNP; relative to: saturating CNP): 80%

Cc1cc(C(=O)Cn2cc(C(F)(F)F)ccc2=O)c(C)n1-c1ccccc1
Emax (S1PR2; reporter gene, agonist): 0%

O=C(CNC(=O)c1ccc(O)c(-c2ccc(Cl)c(Cl)c2)c1)NCCc1ccc(Cl)c(Cl)c1
Emax (Probable G-protein coupled receptor 132 (Gpr132, Mus musculus, UniProt Q9Z282); β-arrestin association, agonist, PathHunter; mouse GPR132; relative to: compound): 100%

N#CCCN1CCN(C(=S)c2ccc(-c3ccccc3)o2)CC1
Emax (NPR2; HTRF, item: cGMP; HEK293 overexpressing GC-B; added: subthreshold CNP; relative to: saturating CNP): 60%

Some of these lines once more:
O=C(CNC(=O)c1ccc(O)c(-c2ccc(Cl)c(Cl)c2)c1)NCCc1ccc(Cl)c(Cl)c1
Emax (Probable G-protein coupled receptor 132 (Gpr132, Mus musculus, UniProt Q9Z282); β-arrestin association, agonist, PathHunter; mouse GPR132; relative to: compound): 100%

N#CCCN1CCN(C(=S)c2ccc(-c3ccccc3)o2)CC1
Emax (NPR2; HTRF, item: cGMP; HEK293 overexpressing GC-B; added: subthreshold CNP; relative to: saturating CNP): 60%
